Results from different studies.
A part holds a random share of what one study measured.

Study 1 — technique: RNA Bind-n-Seq; form: RNA; medium: in vitro; tested at: 1 µM; notes: whole 134-nt RNA, ends assumed; added: 150 mM KCl; reference: input library; direction: higher = stronger binding
Target: Ras GTPase-activating protein-binding protein 1, RRM domain (G3BP1, Homo sapiens, UniProt Q13283)
Sequence of UniProt Q13283 (whole entry, looked up): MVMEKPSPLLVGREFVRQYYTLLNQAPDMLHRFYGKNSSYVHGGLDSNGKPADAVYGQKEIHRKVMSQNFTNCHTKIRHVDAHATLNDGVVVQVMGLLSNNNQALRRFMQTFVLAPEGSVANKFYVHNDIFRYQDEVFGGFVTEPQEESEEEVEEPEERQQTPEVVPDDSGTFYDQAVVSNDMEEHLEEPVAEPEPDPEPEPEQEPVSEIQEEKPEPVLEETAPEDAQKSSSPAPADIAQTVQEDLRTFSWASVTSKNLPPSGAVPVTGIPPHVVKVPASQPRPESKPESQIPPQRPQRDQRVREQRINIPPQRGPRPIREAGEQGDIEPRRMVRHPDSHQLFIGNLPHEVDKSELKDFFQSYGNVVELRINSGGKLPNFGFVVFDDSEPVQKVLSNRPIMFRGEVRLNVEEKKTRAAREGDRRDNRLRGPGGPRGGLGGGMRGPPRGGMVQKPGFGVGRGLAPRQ
All sequences stand within: GGGAGUUCUACAGUCCGACGAUC … UGGAAUUCUCGGGUGUCAAGG
With `GCAGGAAGUGAAAACAAAUGGAAAUGCUUCGGAUAGUGGCAGGGGUGGGGGUUGCUAAGGAAAGGGUGGGAUGGGAGUGGGUAAAGAGUU` the log2 enrichment was 1.68.
`CCUGUGCUACACAUCGUAUGUACCGAAUCGGGGUUUUUGGGGAAAGGGGUUUUUUUGGGGAAAGUAUUAUGUUACGCCGUUCGGAUCUGC` has a log2 enrichment of 0.61.
For `CCUGUGCUACACAUCGUAUGUACCGAAUCGGGGAAAAAGGGGAAAGGGGAAAAAAAGGGGAAAGUAUUAUGUUACGCCGUUCGGAUCUGC`, the log2 enrichment was 0.444.
With `UUUGCAGGAUUAAUCACUCCUGAAGAUCGGAAAUAUGGAACAACAAAUCUUCACUUAGAUGUAUCUGAUGCAGCUAAUGUCAUGGUCUAU` the log2 enrichment was -0.153.
`GUCCUGUGCUACACAUCGUAUGUACCGAAUCGGUUUUUGGUUUUUUUGGAAAAAAAGGAAAGUAUUAUGUUACGCCGUUCGGAUCUGCAC` gave a log2 enrichment of -0.23.
The log2 enrichment of `UCAAGUCCUGUGCUACACAUCGUAUGUACCGAAUCGGCCCGGGCCCGGCCCGGGAAAGUAUUAUGUUACGCCGUUCGGAUCUGCACUUCC` is reported as -0.612.
With `UAACUUUACAGGAGGAUCUGAUGGAUAUGGCAGUGGACGUGGAUUUGGGGAUGGCUAUAAUGGGUAUGGAGGAGGACCUGGAGGUGGCAA` the log2 enrichment was -0.818.
With `AAGUCCUGUGCUACACAUCGUAUGUACCGAAUCGGAAAAGGGAAAAGGGGAAAAGGGAAAGUAUUAUGUUACGCCGUUCGGAUCUGCACU` the log2 enrichment was 0.11.
For `CUGUGCUACACAUCGUAUGUACCGAAUCGGGCCCCCCCGGGCCCCCCCGGGCCCCCCCGGGAAAGUAUUAUGUUACGCCGUUCGGAUCUG`, the log2 enrichment was -0.525.
For `CACAGACAACACGCACCCACACAGACACAGAGGGAAGGGCUUGGGAUGGGGACAGGGUGCACAGCAGGGCGGGGUAGGACCCCAGCCCCU`, the log2 enrichment was -0.232.
For `GUCCUGUGCUACACAUCGUAUGUACCGAAUCGGGGCCCCCGGCCCCCGGGGCCCCCGGAAAGUAUUAUGUUACGCCGUUCGGAUCUGCAC`, the log2 enrichment was -0.977.
For `UCCUGUGCUACACAUCGUAUGUACCGAAUCGGAAAAAGGGGAAAAAGGGGAAAAAGGGGAAAGUAUUAUGUUACGCCGUUCGGAUCUGCA`, the log2 enrichment was 0.0707.
With `GUCCUGUGCUACACAUCGUAUGUACCGAAUCAAACCCAAAUUUUUAAAUUUUUUUAAAAAAGUAUUAUGUUACGCCGUUCGGAUCUGCAC` the log2 enrichment was -0.911.
`UCAAGUCCUGUGCUACACAUCGUAUGUACCGAAUCGGUUUGGGUUUGGUUUGGGAAAGUAUUAUGUUACGCCGUUCGGAUCUGCACUUCC` has a log2 enrichment of -0.229.

Study 2 — technique: RNA Bind-n-Seq; form: RNA; medium: in vitro; tested at: 365 nM; reference: no-protein control; direction: higher = stronger binding
Target: RNA binding protein fox-1 homolog 2, RRM domain, GST-SBP tag (RBFOX2, Homo sapiens, UniProt O43251-10, residues 100-194)
Notes: natural RNA segment, single round, ends assumed
All sequences stand within: GGGAGUUCUACAGUCCGACGAUC … UGGAAUUCUCGGGUGCCAA
Construct (chain): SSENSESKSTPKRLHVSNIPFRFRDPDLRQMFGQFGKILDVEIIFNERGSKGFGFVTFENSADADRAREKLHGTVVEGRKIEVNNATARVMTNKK
For `UGGGUGAACAUGGUUUUUUUGGAAUCAACUGAGAUAAUGCUAUUUCAAUAGCGGCUGGCUUUUUGUGAUUCAGUAACUUAAAUAUUGCCAGUGACUGAGGAUCCCCUCCA`, “RBNS enrichment (R)” read 0.404.
`CACUCUGAUUCAGAAACACACUUCUACCUCUUUACUGUUAACUCUUAACAGAUGCAGUCAGCAGUUUCUGGGCACUUCUCUCAGUAGGUGCCUCAUGCUGACUUCUCCAG` — result for “RBNS enrichment (R)”: 0.375.
`GUGCUAUUGGGUUUUAUUUCCAGAAAAUAUAGUUCUCCUUUUUUCUGCAUGAAGGAUACAUCGUGGUGCCACAUGCUUUAAGCAAUUUAAACAAGAGAGAUAAGAGGAAA` — result for “RBNS enrichment (R)”: 1.28.
`UGAACAGACCCCCCGACCCUCCCCCACAAGCCUUUAAUUGAGAGCCGCUCUCUGUAAGUGUUUGCUUGUGCAAAAGGGAAUAGUGCCGUGGAGGUGUGUGUGUCCAUGGC` — result for “RBNS enrichment (R)”: 1.85.
Under “RBNS enrichment (R)”, `AAGUUCUUGACAUUAAUCUGUUGAGUUGUGGAUACUGGAAACCAUUUGUGUGUUCAAUCAGAUAAUUCUGACUUCUGCAUUGCCACACACGAGAUAUUCUGCUUUCAGAC` is recorded as 0.206.
For `UCGGCAUUCAGGGAACAGUUUCCUUAGCGGCCCCUGGUCACAUGUCAUCGGGCUGGGCAGGAAGCGUCCCUGAUUGCGUGCUCCACUUCUCCCUCUCAGGAAGCCCAGUU`, “RBNS enrichment (R)” read 0.251.
For `ACAAUACUUCUCUCUUCUGGUUUUUCCUGAAUGAGCCUGAUUUUGUUGCUGGUUUUCAUCAUCUAUGAGGGUAAAACGAGUACCCUUAAAAUCCCUGUGGCCAGUUUGAA`, “RBNS enrichment (R)” read 0.2.
Under “RBNS enrichment (R)”, `ACAUUUUUGUUUUGCUUGCCAUGAAUUUCAACUUCCACCACCCAGUGAAUUGAUUUAUAAAUUGCUAUGCUUUGCUGUUUUUCUGUUGCUGUGGAACUUAAAGAAUGUGA` is recorded as 1.07.
Under “RBNS enrichment (R)”, `ACGACCUGCCGCGCCGAGGAGCGGCAUCUGUCCCGUUUCCCGAUUGGGUCUGUCGUCUCUCUCCGCCUAGCGACAGAUUCCUUCUAUUAAGGGAUUGGCUCGCUGAGUUC` is recorded as 0.237.
`CUUUUGAAUGAAUGAAAAAGGGUAUCUUGAUACCCAGAAUUCCCCCCAAAGUACGGGUAAUUCAACCUGCACAGUUUUCUUUCACUCAAAGUGUUCAGCACUUGUGAGUG`: “RBNS enrichment (R)” 0.946.
For `AAAUAGGCCUACAUCCAAAAUAUUAUCUUGUGACUCCAUGAACCAUUCAUUAACCCUUUGUAUCUUUGAGUGAAAAUUUUACUCAAAAGUUGCAUCUGGAAGUUCGAAGA`, “RBNS enrichment (R)” read 0.266.
`AGCUUGCUCUGACGUCACCCUCCUCUCCCCUGACUCCUGUCCUGAGAGCUGUGGAUGCCGCCUCCUGCCCUGCCUACCCCUGAAACGUGGGGAAUGGGGGCCCCAGGACA`: “RBNS enrichment (R)” 0.457.

Study 3 — technique: RNA Bind-n-Seq; form: RNA; medium: in vitro; tested at: not given; reference: input RNA pool; direction: higher = stronger binding
Target: RING finger protein unkempt homolog, zinc fingers 1-6, GST-SBP tag (UNK, Homo sapiens, UniProt Q9C0B0, residues 30-357)
Notes: RNA with constant flanks, human-mouse chimeric sites, ends assumed
All sequences stand within: GGGAGUUCUACAGUCCGACGAUC … CAACAGAGGAUUGAGCAUCA
Construct (chain): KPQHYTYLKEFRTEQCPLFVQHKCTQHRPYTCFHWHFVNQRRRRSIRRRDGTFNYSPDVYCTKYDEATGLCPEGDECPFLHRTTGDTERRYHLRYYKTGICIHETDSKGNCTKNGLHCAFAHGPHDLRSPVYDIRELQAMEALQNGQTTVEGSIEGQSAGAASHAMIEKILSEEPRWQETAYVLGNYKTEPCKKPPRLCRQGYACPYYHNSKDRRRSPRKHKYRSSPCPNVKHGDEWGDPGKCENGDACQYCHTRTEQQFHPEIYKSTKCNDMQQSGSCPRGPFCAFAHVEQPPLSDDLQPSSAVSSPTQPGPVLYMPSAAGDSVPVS
For `ACCUCCCCCUCCCGCCUCACCCCACCCCCGCUUUUUGGAAAGUUUUUGGCUUUUUUUUUCCUUCCCCAUACAAAGUGAUUACAGUUUCCCCCGCAAGGGUCUAUCGAAGGGCUUGACGGA`, the bound/input enrichment was 1.32 ratio.
`CCCACGCCCUCCCUCUCACAGGCCCAAGAUAUAACCCACCAGUGCCUUUUGUCUUCCUGUCAGCUCUGUCAAUCACGCCUGUCCUCUCACGCCCACACCAAGUGCCCAAAGUGGGGAGGG` has a bound/input enrichment of 0.532 ratio.
`ACCUCCCCCUCCCGCCUCACCCCACCCCCGCUUUUUGGAAAGUUUUUGGCGUUUCUUUUUUUUAGAAAGUUAGAAUUAUUACAGUUUCCCCCGCAAGGGUCUAUCGAAGGGCUUGACGGA` has a bound/input enrichment of 2.53 ratio.
With `AGUGUGCAGGAAUUCAUGACCUUUACAAGUCAACUGAUUGUGGAACGCUCGGGGAAAGGCACUAGAGCUUCUGUCAAAGAACAAGAGUAUCUUUGCCAUGUCUACGUCCGGAAUGAUAGU` the bound/input enrichment was 0.136 ratio.
`GAGCCCAGUCGGCAGUUUGUAAAGGACUCAAUUCGGCUGGUUAAAAGAUGCACCAAACCCGACAGAAAAGAAUUCCAGAAGAUUGCCAUGGCUACAGCAAUAGGAUUUGCUAUCAUGGGA` has a bound/input enrichment of 0.157 ratio.
With `UUAUCCAAGACUCAACGAAAGACUCCAACGGUUAUUCAUAAACAUUAUCAAAUUCAUCGGAUUCGACAUUUUUACAUGAGAAAAGUCAAAUUUACUCAACAGAAUUACCAUGAUAGACUG` the bound/input enrichment was 0.299 ratio.
With `AUCCAGUACUCCAAUCACAAAGAACUAAAGACAGAUAAUACAUUAAACCAACGUGCGCAGGCAGUUCUUCAAGCUGUGACAGCUGUCCAGACAGCAAAUACUCCUCUUAGUGGCACCACA` the bound/input enrichment was 0.473 ratio.
The bound/input enrichment of `UUUCUACUGCAGCAAACGAUGCUAAGAAUUAAGGAUCCUAAGAAGUCCCUGGAUUUUUAUACGAGGGUUCUUGGAAUGACCCUCCUGCAAAAAUGUGACUUCCCUGCUAUGAAGUUCUCG` is reported as 0.0714 ratio.
For `ACUCAGAGAUCCACCUCCCAAAGUGCUGGGAGUAAAGGUGUGGCCACUCAAUUCUCCUUGAUGGAUAUUUUAUAAAGUUAAUAUGAAUCUUCCUGUUCGUCCAGGGAAGAAAGAUUUGUU`, the bound/input enrichment was 0.417 ratio.
With `UUACCCGAAAAUGAAGAUGAGCUGGAGAGCACCAACAGGCGCUACACCAAGAGAGACUGCAGCACUUUCCUCAGAACUAGUGAGACGGGCAUCGUGGACCAGGUCAUGGUCACUCUCAAC` the bound/input enrichment was 0.26 ratio.
For `GUGCCCUUCUCGCUGCUGCGGAGCCCGAGCUGGGAACCAUUCCGGGACUGGUACCCUCCGCAUAGCCGCCUCUUCGAUCAAGCUUUCGGGCUGCCCCGGUUGCCCGAUGAGUGGUCGCAG`, the bound/input enrichment was 0.036 ratio.

Study 4 — technique: protein-binding microarray; form: double-stranded DNA, one strand shown; medium: in vitro; tested at: not given; direction: higher = stronger binding
Target: Myc proto-oncogene protein, bHLH-zipper, MAX partner unstated (MYC, Homo sapiens, UniProt P01106, residues 368-449)
Sequence of UniProt P01106 (368-449, looked up): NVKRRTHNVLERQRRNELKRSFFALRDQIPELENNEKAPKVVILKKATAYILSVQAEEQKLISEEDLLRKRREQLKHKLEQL
Notes: k-mer, scored over probes, only values ≥0.25
`CCACACGA` has an E-score of 0.335.
`CATGCTGC` has an E-score of 0.437.
`CCCTCCCC` gave an E-score of 0.346.
`GACCGCGC` has an E-score of 0.252.
The E-score of `ATGAGGCA` is reported as 0.328.
The E-score of `CCATGCAG` is reported as 0.41.
`AACGTGTG` has an E-score of 0.402.
With `AGCACGAG` the E-score was 0.401.
`AACACGAG` has an E-score of 0.433.
With `ACCGCGCA` the E-score was 0.254.
For `AGCAGATG`, the E-score was 0.292.
For `CGTGCGAG`, the E-score was 0.349.
With `TCGTGCCA` the E-score was 0.31.
`CCACGGCA` has an E-score of 0.251.
`CGACCTCA` gave an E-score of 0.275.
The E-score of `TGCCGCCA` is reported as 0.251.
`ACATGGTC` has an E-score of 0.397.
The E-score of `GCGTGGCC` is reported as 0.44.
`AACATGCT` has an E-score of 0.346.
`GGTGACAC` has an E-score of 0.275.
`AGCGCGTG` has an E-score of 0.45.
`AGCACGCT` has an E-score of 0.413.
`GCGTGCAA` has an E-score of 0.395.

Some of these lines once more (study 2):
Under “RBNS enrichment (R)”, `ACGACCUGCCGCGCCGAGGAGCGGCAUCUGUCCCGUUUCCCGAUUGGGUCUGUCGUCUCUCUCCGCCUAGCGACAGAUUCCUUCUAUUAAGGGAUUGGCUCGCUGAGUUC` is recorded as 0.237.
`AGCUUGCUCUGACGUCACCCUCCUCUCCCCUGACUCCUGUCCUGAGAGCUGUGGAUGCCGCCUCCUGCCCUGCCUACCCCUGAAACGUGGGGAAUGGGGGCCCCAGGACA`: “RBNS enrichment (R)” 0.457.
For `AAAUAGGCCUACAUCCAAAAUAUUAUCUUGUGACUCCAUGAACCAUUCAUUAACCCUUUGUAUCUUUGAGUGAAAAUUUUACUCAAAAGUUGCAUCUGGAAGUUCGAAGA`, “RBNS enrichment (R)” read 0.266.
